Assay results collected from several papers.
Each line is one published result; not all experiments were run side by side. Several values in a cell are separate wells, animals, samples, runs or records. ± marks the error that the study gave.
AKR1B1: Aldo-keto reductase family 1 member B1 (AKR1B1, Homo sapiens, UniProt P15121)
Kir3.1/Kir3.4: Kir3.1/Kir3.4 (Homo sapiens, UniProt P48544+P48549)
pyrD: Dihydroorotate dehydrogenase (quinone) (pyrD, Acinetobacter baumannii, UniProt B7GZW7)
SLC6A6 Y138A: Sodium- and chloride-dependent taurine transporter (SLC6A6, Homo sapiens, UniProt P31641, Y138A)
T1: riboswitch RNA yjdF aptamer A11G/A50G (Bacillus subtilis); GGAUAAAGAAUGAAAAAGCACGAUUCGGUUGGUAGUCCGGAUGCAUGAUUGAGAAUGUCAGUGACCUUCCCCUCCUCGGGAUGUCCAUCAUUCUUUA
T2: lysine riboswitch RNA, 2-aminopurine at 17 (Bacillus subtilis); chain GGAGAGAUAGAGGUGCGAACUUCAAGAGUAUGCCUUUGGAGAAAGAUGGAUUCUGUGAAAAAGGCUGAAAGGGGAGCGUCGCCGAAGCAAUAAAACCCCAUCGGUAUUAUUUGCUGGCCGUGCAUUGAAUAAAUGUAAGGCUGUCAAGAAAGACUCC; chain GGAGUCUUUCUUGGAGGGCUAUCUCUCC

For `CC/C=C(\C)C=O`, the conversion was 27% (Enoyl-ACP reductase (Thermus thermophilus, UniProt P83818); substrate, biocatalytic transformation; pH 7, 30 °C, anaerobic, with: NADPH).
`Cc1cc2nc3[nH]c(=O)[nH]c(=O)c3nc2cc1C` has a Kd of 1.4 µM (T1, riboswitch RNA yjdF aptamer A11G/A50G (Bacillus subtilis); fluorescence titration; with: 380 nM lumichrome).
`O=C(CN1C(=O)S/C(=C\c2ccc(Cl)cc2)C1=O)c1ccc([N+](=O)[O-])cc1` has a Hill slope of -0.608 (AKR1B1; enzyme activity, inhibitor).
With `O=C(COc1ccc(C(F)(F)F)cc1C(F)(F)F)Nc1cc(C2CC2)nn1CC(F)(F)F` the Emax was 58% (Kir3.1/Kir3.4; thallium flux, activator; HEK293; reference: standard compound).
With `Nc1nc2c(ncn2[C@@H]2O[C@H](COP(=O)(O)O)[C@@H](O)[C@H]2O)c(=O)[nH]1` the reaction rate was 0.342 s⁻¹ and -2.9 s⁻¹ and -0.763 s⁻¹ (GUK1 (Homo sapiens, UniProt Q16774, S37A); enzyme activity, NADH-coupled; 7.812 µM).
`NCCCC[C@H](N)C(=O)NCC(=O)O` gave a Kd of 570 µM (T2, lysine riboswitch RNA, 2-aminopurine at 17 (Bacillus subtilis); 2-aminopurine fluorescence titration; pH 8.0, 37 °C, apparent).
With `CSc1nc2nc(C)cc(Nc3ccc(C(F)(F)F)cc3)n2n1` the robust Z-score was 26.2 (pyrD; enzyme activity, inhibitor, colorimetric HTS, measured: DCIP reduction; 3 µM; direction not given).
Under photoaffinity labelling, `CC1(C)CC[C@]2(C(=O)O)CC[C@]3(C)C(=CC[C@@H]4[C@@]5(C)C[C@@H](O)[C@H](OC(=O)/C=C/c6ccc(O)cc6)C(C)(C)[C@@H]5CC[C@]43C)[C@@H]2C1` (relative stereo) is recorded as “no effect” (Presenilin-1, N-terminal fragment (PSEN1, Homo sapiens, UniProt P49768); S3′ subsite probe binding, competitor, measured: PS1 labelling; HeLa membranes).
For `CSc1nc2nc(C)cc(Nc3ccc(S(F)(F)(F)(F)F)cc3)n2n1`, the robust Z-score was 26.8 (pyrD; enzyme activity, inhibitor, colorimetric HTS, measured: DCIP reduction; 3 µM; direction not given).
With `NCCCCC(=O)O` the fraction bound was 0 (SLC6A6 Y138A; binding, microscale thermophoresis; 43.2 nM, fitted curve; higher = more binding).
`O=c1nc(SCc2cc(F)cc(C(F)(F)F)c2)nc(SCc2ccc3nc(Cl)ccc3c2)[nH]1`: “mean relaxed DNA” 0% (DNA topoisomerase 2-alpha (TOP2A, Homo sapiens, UniProt P11388); DNA relaxation; 62.5 µM).
The koff of `C[C@]12C[C@H](O)[C@H]3[C@@H](CCC4=CC(=O)CC[C@@]43C)[C@@H]1CC[C@@H]2C(=O)CO` is reported as 2.28 ± 0.3 s⁻¹ (Cytochrome P450 11B1, mitochondrial (CYP11B1, Homo sapiens, UniProt P15538, V320A); nanodiscs; 25 °C, fast phase).
`CC1=NN(c2ccccn2)C(=O)C1=NNc1ccc(S(N)(=O)=O)cc1` gave an inhibition of 43.2% (bovine α-glucosidase; enzyme activity, inhibitor, glucose oxidase; 200 µg/mL, with: maltose).
For `Cc1cc(NC(=O)C2CCc3cc(F)ccc3O2)n(C2CCS(=O)(=O)C2)n1` (centres unmarked), the Emax was 23% (Kir3.1/Kir3.4; thallium flux, activator; HEK293; reference: standard compound).
For `Nc1ccc(C(=O)O)cc1`, the current density was -41.1 pA/pF and -41.6 pA/pF and -84.5 pA/pF and -44 pA/pF and -65 pA/pF and -57.6 pA/pF and -75.9 pA/pF (BEST1 (Homo sapiens, UniProt O76090); whole-cell patch clamp; HEK293 transiently expressing channel; concentration not given, membrane potential -80 mV).
With `O=C(O)c1ccc(Nc2ncc3c(n2)-c2ccc(Cl)cc2C(c2c(F)cccc2F)=NC3)cc1` the remaining activity was 95% (NEK3(h); kinase activity; 1 µM).
`O=C1S/C(=C\c2ccc([N+](=O)[O-])cc2)C(=O)N1Cc1nc2ccccc2s1` gave a Hill slope of -0.595 (AKR1B1; enzyme activity, inhibitor).
The Ki of `CC(=O)O[C@H](CC(=O)[O-])C[N+](C)(C)C` is reported as 1870 µM (Carnitine O-acetyltransferase (CRAT, Columba livia, UniProt P52826); stopped-flow global fit; pH 7.8, ambient, ordered bi-bi mechanism).
`O=C(CN1C(=O)S/C(=C\c2ccc(Br)cc2)C1=O)c1ccc([N+](=O)[O-])cc1` has a Hill slope of -0.435 (AKR1B1; enzyme activity, inhibitor).
`Cc1ccc(C(C)C)cc1O` has a reaction velocity of 0 nmol/min/mg (uncharacterized protein (Solanum tuberosum, UniProt M0ZZL3); inhibitor, UDP-Glo; with: 100 µM UDP-glucose).
With `Nc1ncnc2c1ncn2[C@@H]1O[C@H](COP(=O)(O)CP(=O)(O)OP(=O)(O)O)[C@@H](O)[C@H]1O` the specific binding was 5260 CCPM and 8520 CCPM and 8620 CCPM and 3320 CCPM and 8300 CCPM (P2X purinoceptor 1 (P2RX1, Homo sapiens, UniProt P51575); saturation binding; HEK293; 79 nM).
With `C=CC(=O)N1CCC(COCC(=O)N2CCN(c3nc(-c4cnc(N)nc4C(F)F)nc(N4CCOC[C@@H]4C)n3)CC2)CC1` the remaining binding was 96% (Mitogen-activated protein kinase kinase kinase 6 (MAP3K6, Homo sapiens, UniProt O95382); KINOMEscan; 1 µM).
`O=C(Nc1cccc2c(=O)cc(-c3nnn[nH]3)oc12)c1ccc(OCCCCc2ccccc2)cc1` has a Hill coefficient of 0.82 (LRRC8A/LRRC8C (Homo sapiens, UniProt Q8IWT6+Q8TDW0, Y124F/Y126F); whole-cell patch clamp; HCT116 LRRC8-/- transfected; at +100 mV).
For `CC[C@H](C)[C@H](NC(=O)[C@H](CCC(=O)O)NC(=O)[C@H](CO)NC(=O)[C@@H](NC(=O)[C@@H](N)CO)C(C)C)C(=O)N[C@@H](CCC(N)=O)C(=O)N[C@@H](CC(C)C)C(=O)N[C@@H](CCSC)C(=O)N[C@@H](Cc1c[nH]cn1)C(=O)N[C@@H](CC(N)=O)C(=O)N[C@@H](CC(C)C)C(=O)NCC(=O)N[C@@H](CCCCN)C(=O)N[C@@H](Cc1c[nH]cn1)C(=O)N[C@@H](CC(C)C)C(=O)N[C@@H](CC(N)=O)C(=O)N[C@@H](CO)C(=O)N[C@@H](CCSC)C(=O)N[C@@H](CCC(=O)O)C(=O)N[C@@H](CCCNC(=N)N)C(=O)N[C@H](C(=O)N[C@@H](CCC(=O)O)C(=O)N[C@@H](Cc1c[nH]c2ccccc12)C(=O)N[C@@H](CC(C)C)C(=O)N[C@@H](CCCNC(=N)N)C(=O)N[C@@H](CCCCN)C(=O)N[C@@H](CCCCN)C(=O)N[C@@H](CC(C)C)C(=O)N[C@@H](CCC(N)=O)C(=O)N[C@@H](CC(=O)O)C(=O)N[C@H](C(=O)N[C@@H](Cc1c[nH]cn1)C(=O)N[C@@H](CC(N)=O)C(=O)N[C@@H](Cc1ccccc1)C(N)=O)C(C)C)C(C)C`, “maximum cAMP response” read 62.1% (Parathyroid hormone/parathyroid hormone-related peptide receptor (PTH1R, Homo sapiens, UniProt Q03431); agonist, GloSensor; SGS-72; 316 pM).
`C=CC(=O)N1CCC(C(=O)NCC(=O)N2CCN(c3nc(-c4cnc(N)nc4C(F)F)nc(N4CCOCC4)n3)CC2)CC1` has a remaining binding of 92% (Membrane-associated tyrosine- and threonine-specific cdc2-inhibitory kinase (PKMYT1, Homo sapiens, UniProt Q99640); KINOMEscan; 1 µM).
`Cc1n[nH]c2ccc(-c3cc(OC[C@@H](N)Cc4ccccc4)cnc3-c3ccoc3)cc12` — result for “log2 fold change”: 0.12 (Cyclin-dependent kinase 1 (CDC28, Candida albicans, UniProt P43063); kinase binding, competitor, MIB/MS competition, measured: CDC28; Candida albicans cell lysate; 100 nM; reference: DMSO).
The selectivity ratio of `O=C(Nc1cc(Cl)cc(Cl)c1)c1ccc2c(c1)C(=O)NC2=O` is reported as greater than 727 (Amine oxidase [flavin-containing] B (MAOB, Homo sapiens, UniProt P27338); reference: IC50 MAO-A over IC50 MAO-B).
The hydrolysis of `Cn1c[n+]([C@@H]2O[C@H](COP(=O)(O)OP(=O)([O-])OP(=O)(O)OC[C@H]3O[C@@H](n4cnc5c(=O)[nH]c(N)nc54)[C@H](O)[C@@H]3O)[C@@H](O)[C@H]2O)c2nc(N)[nH]c(=O)c21` is reported as 98.2 ± 1.8% (m7GpppX diphosphatase (DCPS, Homo sapiens, UniProt Q96C86); substrate, HPLC; 0.04 mM, 1 h, 37 °C).
`CC[C@H](C)[C@@H]1NC(=O)[C@H](C)NC(=O)[C@H]([C@@H](C)CC)NC(=O)[C@H](CCC(N)=O)NC(=O)[C@H](C)NC(=O)[C@H](CCCNC(=N)N)NC(=O)[C@H](C(C)C)NC(=O)[C@H](CC(C)C)NC(=O)[C@H](CCC(=O)O)NC(=O)[C@H](CCCNC(=N)N)NC(=O)CNC(=O)[C@@H](NC(=O)[C@H](CC(C)C)NC(=O)[C@H](CCCCN)NC(=O)[C@@H](NC(=O)[C@@H](NC(=O)[C@H](CCC(=O)O)NC(=O)[C@H](CCC(=O)O)NC(=O)[C@H](CCSC)NC(=O)[C@H](Cc2c[nH]c3ccccc23)NC(=O)[C@H](CO)NC(=O)[C@@H](N)CC(=O)O)C(C)C)[C@@H](C)CC)CSSC[C@@H]2NC(=O)[C@@H](NC(=O)[C@H](CCCCN)NC(=O)[C@H](CC(N)=O)NC(=O)[C@H](C)NC(=O)[C@H](CC(C)C)NC(=O)[C@H](C)NC(=O)[C@H](CO)NC(=O)[C@H](Cc3ccc(O)cc3)NC(=O)[C@H](CC(C)C)NC(=O)[C@H](CCC(N)=O)NC(=O)c3ccc(-c4c5ccc(=[N+](C)C)cc-5oc5cc(N(C)C)ccc45)c(C(=O)[O-])c3)CSSC[C@H](NC(=O)CNC(=O)[C@H](C(C)C)NC(=O)[C@H](Cc3c[nH]cn3)NC2=O)C(=O)N[C@@H]([C@@H](C)O)C(=O)N[C@@H](CCCCN)C(=O)N[C@@H](CCCNC(=N)N)C(=O)N[C@@H](CO)C(=O)N[C@@H](CC(C)C)C(=O)N[C@@H](C)C(=O)N[C@@H](CCCNC(=N)N)C(=O)N[C@@H](Cc2ccccc2)C(=O)N[C@H](C(=O)O)CSSC[C@@H](C(=O)NCC(=O)N[C@@H](CCSC)C(=O)N[C@@H](CO)C(=O)N[C@H](C(=O)N[C@@H](Cc2c[nH]c3ccccc23)C(=O)N[C@@H](CO)C(=O)O)[C@@H](C)O)NC1=O` — result for “koff fast phase”: 0.00685 s⁻¹ (Relaxin receptor 1 (RXFP1, Homo sapiens, UniProt Q9HBX9, F76A/Y80A); NanoBRET dissociation; infinite dilution, with: 100 nM relaxin).
`O=S(=O)(O)C1CCNCC1` — result for “normalised MST signal”: 0.0711 (Sodium- and chloride-dependent taurine transporter (SLC6A6, Homo sapiens, UniProt P31641, G62A); binding, microscale thermophoresis; 1 mM, room temperature, with: 50 nM labelled protein; higher = more binding).
For `Cc1cc(Nc2ccc(S(F)(F)(F)(F)F)cc2)n2nc(C3CC3)nc2n1`, the robust Z-score was 16.8 (pyrD; enzyme activity, inhibitor, colorimetric HTS, measured: DCIP reduction; 3 µM; direction not given).
`CCc1cc(NC(=O)COc2ccc(Cl)cc2Cl)n(CC(F)(F)F)n1` gave an Emax of 80% (Kir3.1/Kir3.4; thallium flux, activator; HEK293; reference: standard compound).
`COc1cc(F)cc2c(N3CCN(c4ccccc4F)CC3)c(C#N)nnc12` gave a maximal response of 104% (Metabotropic glutamate receptor 7 (Grm7, Rattus norvegicus, UniProt P35400); positive allosteric modulator; cell-based; with: L-AP4 EC20; reference: L-AP4 maximum).
Under “normalised MST signal”, `NCCCS(=O)(=O)O` is recorded as 0.464 (SLC6A6 Y138A; binding, microscale thermophoresis; 125 µM, room temperature, with: 50 nM labelled protein; higher = more binding).
`O=c1ncccn1[C@@H]1O[C@H](CO)[C@@H](O)[C@H]1O`: “protein level reduction” 85 to 91% (DNA (cytosine-5)-methyltransferase 1 (DNMT1, Homo sapiens, UniProt P26358); degrader, Western blot; MEC1; 200 µM, 48 h).
`CC(C)(COP(=O)(O)OP(=O)(O)OC[C@H]1O[C@@H](n2cnc3c(N)ncnc32)[C@H](O)[C@@H]1OP(=O)(O)O)[C@@H](O)C(=O)NCCC(=O)NCCS` — result for “histone acetyltransferase activity”: “inhibited” (RNA cytidine acetyltransferase (Homo sapiens, UniProt Q9H0A0); inhibitor; concentration not given).
`NC(N)=NCCC[C@H](N)C(=O)Nc1ccc2ccccc2c1` gave a kcat of 6.88 s⁻¹ (rat aminopeptidase III; substrate; MW 110 kDa).
For `CCN1CCC[C@H]1CNC(=O)c1c(O)c(Cl)cc(Cl)c1OC`, “log2 fold change” read 0.789 (Neuropeptide FF receptor 1 (NPFFR1, Homo sapiens, UniProt Q9GZQ6); β-arrestin recruitment, TANGO luminescence, measured: NPFF1; concentration not given; reference: basal luminescence).
